Published values collected from several papers.
Organism: Staphylococcus aureus

| SMILES | assay | test system | setting | MIC |
| --- | --- | --- | --- | --- |
| FC(F)(F)c1ccc(Nc2cc(C(F)(F)F)nc3cc(C(F)(F)F)ccc23)nc1 | – | – | – | 0.125 to 0.25 µg/mL |
| CC[C@H](C)[C@H](NC(=O)[C@H](CCCCN)NC(=O)[C@H](CC(C)C)NC(=O)[C@H](CC(C)C)NC(=O)[C@@H](N)CCCCN)C(=O)N[C@H](C(=O)N[C@@H](CCCCN)C(=O)N[C@@H](CCCCN)C(=O)N[C@H](C(=O)N[C@H](C(=O)NCC(=O)N[C@@H](C)C(=O)N[C@@H](CC(C)C)C(=O)NCC(N)=O)C(C)C)C(C)C)C(C)C | – | SH1000 GFP-expressing, nutrient broth | 20 h, 37 °C | 100 µM |
| CC[C@H](C)[C@H](NC(=O)[C@H](CC(C)C)NC(=O)[C@H](C)NC(=O)[C@@H]1CCCN1C(=O)[C@H](CCCNC(=N)N)NC(=O)[C@@H](N)Cc1ccccc1)C(=O)N[C@H](C(=O)N[C@@H](CCCNC(=N)N)C(=O)N[C@H](C(=O)N[C@@H](CCCCN)C(=O)NCC(=O)N[C@H](C(=O)N[C@@H](CCCNC(=N)N)C(=O)N[C@@H](CC(C)C)C(=O)O)[C@@H](C)O)[C@@H](C)O)C(C)C | broth microdilution | USA300 LAC | 37 °C | > 30 µM |
| CC(C)C[C@H](NC(=O)CN)C(=O)N[C@@H](Cc1ccccc1)C(=O)N[C@@H](CCCCN)C(=O)N[C@@H](CC(C)C)C(=O)N[C@@H](CC(C)C)C(=O)N[C@@H](CCCCN)C(=O)N[C@@H](CCCCN)C(=O)N[C@@H](CC(C)C)C(=O)N[C@@H](CC(C)C)C(=O)N[C@@H](CCCCN)C(=O)N[C@@H](CC(C)C)C(=O)N[C@@H](CC(C)C)C(=O)N[C@@H](CCCCN)C(N)=O | – | ATCC 43300, CAMHB | 18 h, 37 °C | > 20 µM |
| CC[C@H](C)[C@H](NC(=O)[C@H](CCCCN)NC(=O)[C@H](CCC(=O)O)NC(=O)[C@H](CCCCN)NC(=O)[C@H](CO)NC(=O)[C@H](CCCCN)NC(=O)[C@H](CCCNC(=N)N)NC(=O)[C@H](Cc1ccccc1)NC(=O)[C@H](Cc1ccccc1)NC(=O)[C@H](CC(=O)O)NC(=O)CNC(=O)[C@H](CC(C)C)NC(=O)[C@@H](N)CC(C)C)C(=O)NCC(=O)N[C@@H](CCCCN)C(=O)N[C@@H](CCC(=O)O)C(=O)N[C@@H](Cc1ccccc1)C(=O)N[C@@H](CCCCN)C(=O)N[C@@H](CCCNC(=N)N)C(=O)N[C@H](C(=O)N[C@H](C(=O)N[C@@H](CCC(N)=O)C(=O)N[C@@H](CCCNC(=N)N)C(=O)N[C@H](C(=O)N[C@@H](CCCCN)C(=O)N[C@@H](CC(=O)O)C(=O)N[C@@H](Cc1ccccc1)C(=O)N[C@@H](CC(C)C)C(=O)N[C@@H](CCCNC(=N)N)C(=O)N[C@@H](CC(N)=O)C(=O)N[C@@H](CC(C)C)C(=O)N[C@H](C(=O)N1CCC[C@H]1C(=O)N[C@@H](CCCNC(=N)N)C(=O)N[C@H](C(=O)N[C@@H](CCC(=O)O)C(=O)N[C@@H](CO)C(=O)O)[C@@H](C)O)C(C)C)[C@@H](C)CC)C(C)C)[C@@H](C)CC | broth microdilution | USA300 JE2 wild type | 18 to 20 h | 192 µg/mL |
| CN[C@H](CC(C)C)C(=O)N[C@H]1C(=O)N[C@@H](CC(N)=O)C(=O)N[C@H]2C(=O)N[C@H]3C(=O)N[C@H](C(=O)N[C@H](C(=O)O)c4cc(O)cc(O)c4-c4cc3ccc4O)[C@H](O)c3ccc(c(Cl)c3)Oc3cc2cc(c3O[C@@H]2O[C@H](CO)[C@@H](O)[C@H](O)[C@H]2O[C@H]2C[C@](C)(N)[C@H](O)[C@H](C)O2)Oc2ccc(cc2Cl)[C@H]1O | microbial growth, broth dilution | ATCCBAA1717 MRSA | 20 h | 0.98 µg/mL |
| CC[C@H](C)[C@H](NC(=O)[C@@H]1CCCN1C(=O)[C@H](CCCNC(=N)N)NC(=O)[C@@H]1CCCN1C(=O)[C@H](Cc1c[nH]cn1)NC(=O)[C@H](CO)NC(=O)[C@@H](NC(=O)[C@@H]1CCCN1C(=O)[C@H](CCCNC(=N)N)NC(=O)[C@@H]1CCCN1C(=O)[C@H](CO)NC(=O)[C@H](Cc1ccc(O)cc1)NC(=O)[C@@H]1CCCN1C(=O)[C@H](CCCNC(=N)N)NC(=O)[C@@H]1CCCN1C(=O)[C@H](CCCCN)NC(=O)CN)[C@@H](C)O)C(=O)N[C@@H](CCCNC(=N)N)C(=O)N[C@H](C(=O)O)C(C)C | broth microdilution | USA300 LAC | 37 °C | > 100 µM |
| CC(C)[C@H](N)C(=O)N[C@@H](CS)C(=O)N1CCC[C@H]1C(=O)N[C@@H](Cc1c[nH]cn1)C(=O)N[C@@H](CCCNC(=N)N)C(=O)N[C@@H](CS)C(=O)O | broth microdilution | MTCC 96 | 37 °C | 110 µg/mL |
| O=[N+]([O-])c1ccc(Sc2nc3ccccc3s2)c([N+](=O)[O-])c1 | microbial growth | ATCC25923 | – | > 500 µg/mL |
| CC[C@H](C)[C@H](NC(=O)[C@H](CC(=O)O)NC(=O)[C@H](Cc1ccccc1)NC(=O)[C@H](CC(C)C)NC(=O)CN)C(=O)N[C@H](C(=O)N[C@@H](CCCCN)C(=O)N[C@@H](CCCCN)C(=O)N[C@H](C(=O)N[C@H](C(=O)NCC(=O)N[C@@H](CC(C)C)C(=O)N[C@@H](CC(C)C)C(=O)N[C@@H](CCCCN)C(N)=O)C(C)C)C(C)C)C(C)C | – | SH1000 GFP-expressing, nutrient broth | 20 h, 37 °C | 50 µM |
| CC[C@H](C)[C@H](NC(=O)[C@H](Cc1c[nH]cn1)NC(=O)[C@H](CCCCN)NC(=O)[C@@H](NC(=O)[C@@H](NC(=O)[C@H](CC(=O)O)NC(=O)[C@H](Cc1ccccc1)NC(=O)[C@H](Cc1c[nH]c2ccccc12)NC(=O)CN)C(C)C)C(C)C)C(=O)N[C@@H](C)C(=O)N[C@@H](CCCCN)C(=O)N[C@@H](CCCNC(=N)N)C(=O)N[C@@H](Cc1ccccc1)C(N)=O | broth microdilution | USA300 LAC | 37 °C | 50 µM |
| CN[C@H](CC(C)C)C(=O)N[C@H]1C(=O)N[C@@H](CC(N)=O)C(=O)N[C@H]2C(=O)N[C@H]3C(=O)N[C@H](C(=O)N[C@H](C(=O)O)c4cc(O)cc(O)c4-c4cc3ccc4O)[C@H](O)c3ccc(c(Cl)c3)Oc3cc2cc(c3O[C@@H]2O[C@H](CO)[C@@H](O)[C@H](O)[C@H]2O[C@H]2C[C@](C)(N)[C@H](O)[C@H](C)O2)Oc2ccc(cc2Cl)[C@H]1O | – | MRSA ATCC BAA-1720 | 20 h | 2 µg/mL |
| CCCCCCCCCC1CC(=O)c2c(O)cc(O)cc2O1 (centres unmarked) | broth microdilution | MRSA NRS70 | – | 3.13 to 6.25 µg/mL |
| Nc1cccc2c(=O)[nH]c(=O)oc12 | – | ATCC 29213 | 50 µg/mL | inactive |
| CC[C@H](C)[C@H](NC(=O)CNC(=O)[C@H](CCCNC(=N)N)NC(=O)[C@H](Cc1ccccc1)NC(=O)[C@@H](NC(=O)[C@H](Cc1c[nH]cn1)NC(=O)[C@H](Cc1c[nH]cn1)NC(=O)[C@H](Cc1ccccc1)NC(=O)[C@@H](N)Cc1ccccc1)[C@@H](C)CC)C(=O)N[C@H](C(=O)N[C@@H](Cc1c[nH]cn1)C(=O)N[C@H](C(=O)NCC(=O)N[C@@H](CCCCN)C(=O)N[C@H](C(=O)N[C@@H](C)C(=O)N[C@@H](Cc1c[nH]cn1)C(=O)N[C@@H](CCCNC(=N)N)C(=O)N[C@@H](CC(C)C)C(=O)N[C@H](C(=O)N[C@H](C(=O)NCC(N)=O)[C@@H](C)O)C(C)C)[C@@H](C)O)C(C)C)C(C)C | broth microdilution | ATCC 25923 | 18 h, 37 °C | 3.1 µg/mL |
| CC(C)C[C@H](NC(=O)[C@H](C)NC(=O)[C@H](CCCCN)NC(=O)[C@H](CC(C)C)NC(=O)[C@H](CC(C)C)NC(=O)[C@H](CCCCN)NC(=O)[C@H](CCCCN)NC(=O)[C@H](CC(C)C)NC(=O)[C@H](CC(C)C)NC(=O)[C@H](CCCCN)NC(=O)[C@H](CC(C)C)NC(=O)[C@H](CC(C)C)NC(=O)[C@@H](N)CCCCN)C(=O)NCC(N)=O | – | ATCC 43300, CAMHB | 18 h, 37 °C | 10 µM |
| CC[C@H](C)[C@H](NC(=O)[C@H](C)NC(=O)CNC(=O)[C@H](C)NC(=O)[C@H](CCCCN)NC(=O)[C@H](CO)NC(=O)[C@H](C)NC(=O)[C@H](CCSC)NC(=O)CN)C(=O)N[C@@H](C)C(=O)NCC(=O)N[C@@H](CCCCN)C(=O)N[C@H](C(=O)N[C@@H](C)C(=O)N[C@@H](CCCCN)C(=O)N[C@H](C(=O)N[C@@H](C)C(=O)N[C@@H](CC(C)C)C(=O)N[C@@H](CCCCN)C(=O)N[C@@H](C)C(=O)N[C@@H](CC(C)C)C(N)=O)C(C)C)[C@@H](C)CC | broth microdilution | USA300 LAC | 37 °C | 25 µM |
| N=C(N)NCCC[C@H](NC(=O)[C@@H](N)CCCCN)C(=O)N[C@@H](Cc1c[nH]c2ccccc12)C(=O)N[C@@H](Cc1c[nH]c2ccccc12)C(=O)N[C@@H](CCC(N)=O)C(=O)N[C@@H](Cc1c[nH]c2ccccc12)C(=O)N[C@@H](Cc1c[nH]c2ccccc12)C(=O)N[C@@H](CCCCN)C(N)=O | broth microdilution | USA300, Mueller-Hinton broth | overnight, 37 °C | 8 µM |
| CC[C@H](C)[C@H](NC(=O)[C@H](C)NC(=O)[C@H](CCCNC(=N)N)NC(=O)CNC(=O)[C@H](C)NC(=O)[C@H](CCC(=O)O)NC(=O)CNC(=O)[C@H](CC(=O)O)NC(=O)[C@H](Cc1ccc(O)cc1)NC(=O)[C@H](Cc1ccccc1)NC(=O)CNC(=O)[C@H](CCCCN)NC(=O)[C@H](CCCNC(=N)N)NC(=O)[C@H](CC(C)C)NC(=O)[C@H](CO)NC(=O)[C@H](CO)NC(=O)[C@H](Cc1c[nH]c2ccccc12)NC(=O)[C@H](Cc1ccccc1)NC(=O)[C@H](CC(N)=O)NC(=O)[C@H](CCCCN)NC(=O)[C@H](Cc1c[nH]c2ccccc12)NC(=O)[C@H](C)NC(=O)CN)C(=O)N[C@@H](CCCNC(=N)N)C(=O)N[C@@H](CCCNC(=N)N)C(=O)O | broth microdilution | USA300 LAC | 37 °C | > 38.9 µM |
| CC1(C)S[C@@H]2[C@H](NC(=O)[C@H](N)c3ccc(O)cc3)C(=O)N2[C@H]1C(=O)O | microbial growth | ATCC25923 | – | ≤ 7.81 µg/mL |

Some of these lines once more:
| SMILES | assay | test system | setting | MIC |
| --- | --- | --- | --- | --- |
| CN[C@H](CC(C)C)C(=O)N[C@H]1C(=O)N[C@@H](CC(N)=O)C(=O)N[C@H]2C(=O)N[C@H]3C(=O)N[C@H](C(=O)N[C@H](C(=O)O)c4cc(O)cc(O)c4-c4cc3ccc4O)[C@H](O)c3ccc(c(Cl)c3)Oc3cc2cc(c3O[C@@H]2O[C@H](CO)[C@@H](O)[C@H](O)[C@H]2O[C@H]2C[C@](C)(N)[C@H](O)[C@H](C)O2)Oc2ccc(cc2Cl)[C@H]1O | – | MRSA ATCC BAA-1720 | 20 h | 2 µg/mL |
| CC1(C)S[C@@H]2[C@H](NC(=O)[C@H](N)c3ccc(O)cc3)C(=O)N2[C@H]1C(=O)O | microbial growth | ATCC25923 | – | ≤ 7.81 µg/mL |
